Published values pooled from the literature.
Protocols differ between the studies behind these lines.
TMPRSS2: Transmembrane protease serine 2 (TMPRSS2, Homo sapiens, UniProt O15393)
Chain of UniProt O15393 (whole entry, looked up): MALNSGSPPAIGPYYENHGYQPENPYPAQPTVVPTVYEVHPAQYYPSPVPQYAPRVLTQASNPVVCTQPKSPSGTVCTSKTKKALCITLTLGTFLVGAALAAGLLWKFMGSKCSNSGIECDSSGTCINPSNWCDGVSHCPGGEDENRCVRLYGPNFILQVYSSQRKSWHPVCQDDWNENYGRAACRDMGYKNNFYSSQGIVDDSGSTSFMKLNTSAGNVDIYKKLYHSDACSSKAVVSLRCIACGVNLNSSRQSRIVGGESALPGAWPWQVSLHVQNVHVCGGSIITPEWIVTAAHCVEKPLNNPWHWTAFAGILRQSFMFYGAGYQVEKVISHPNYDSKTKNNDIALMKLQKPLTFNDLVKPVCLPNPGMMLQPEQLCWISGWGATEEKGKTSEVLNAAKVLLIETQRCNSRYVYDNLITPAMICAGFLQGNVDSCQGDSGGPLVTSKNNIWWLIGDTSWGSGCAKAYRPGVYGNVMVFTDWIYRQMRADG
Chain of UniProt P07711 (whole entry, looked up): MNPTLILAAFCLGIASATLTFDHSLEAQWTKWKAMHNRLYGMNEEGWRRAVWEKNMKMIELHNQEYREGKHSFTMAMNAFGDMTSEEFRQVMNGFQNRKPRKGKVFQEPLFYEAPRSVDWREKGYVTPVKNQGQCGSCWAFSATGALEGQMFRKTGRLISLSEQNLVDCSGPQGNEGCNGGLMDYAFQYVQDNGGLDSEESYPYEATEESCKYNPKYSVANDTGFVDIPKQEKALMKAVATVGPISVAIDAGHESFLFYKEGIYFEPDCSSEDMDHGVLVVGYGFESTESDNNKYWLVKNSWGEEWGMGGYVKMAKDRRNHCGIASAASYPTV
Chain of UniProt Q13976 (whole entry, looked up): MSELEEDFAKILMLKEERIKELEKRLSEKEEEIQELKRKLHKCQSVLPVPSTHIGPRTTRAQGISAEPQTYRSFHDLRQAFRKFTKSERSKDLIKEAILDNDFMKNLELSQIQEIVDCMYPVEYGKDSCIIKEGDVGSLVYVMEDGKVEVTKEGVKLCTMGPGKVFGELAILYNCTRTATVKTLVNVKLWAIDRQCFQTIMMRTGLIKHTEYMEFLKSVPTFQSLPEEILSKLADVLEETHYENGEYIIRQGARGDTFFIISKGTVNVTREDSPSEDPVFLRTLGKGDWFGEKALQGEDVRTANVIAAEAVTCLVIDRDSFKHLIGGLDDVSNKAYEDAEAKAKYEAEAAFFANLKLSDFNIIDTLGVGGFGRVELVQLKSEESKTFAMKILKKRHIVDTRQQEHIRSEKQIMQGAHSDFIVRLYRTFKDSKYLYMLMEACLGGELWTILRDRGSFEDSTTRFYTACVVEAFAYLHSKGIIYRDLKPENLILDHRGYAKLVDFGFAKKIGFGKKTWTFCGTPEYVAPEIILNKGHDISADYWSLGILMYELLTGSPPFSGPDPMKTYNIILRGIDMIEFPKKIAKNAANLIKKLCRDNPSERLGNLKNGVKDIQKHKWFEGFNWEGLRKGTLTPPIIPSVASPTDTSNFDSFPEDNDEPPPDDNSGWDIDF
Chain of UniProt O43318 (whole entry, looked up): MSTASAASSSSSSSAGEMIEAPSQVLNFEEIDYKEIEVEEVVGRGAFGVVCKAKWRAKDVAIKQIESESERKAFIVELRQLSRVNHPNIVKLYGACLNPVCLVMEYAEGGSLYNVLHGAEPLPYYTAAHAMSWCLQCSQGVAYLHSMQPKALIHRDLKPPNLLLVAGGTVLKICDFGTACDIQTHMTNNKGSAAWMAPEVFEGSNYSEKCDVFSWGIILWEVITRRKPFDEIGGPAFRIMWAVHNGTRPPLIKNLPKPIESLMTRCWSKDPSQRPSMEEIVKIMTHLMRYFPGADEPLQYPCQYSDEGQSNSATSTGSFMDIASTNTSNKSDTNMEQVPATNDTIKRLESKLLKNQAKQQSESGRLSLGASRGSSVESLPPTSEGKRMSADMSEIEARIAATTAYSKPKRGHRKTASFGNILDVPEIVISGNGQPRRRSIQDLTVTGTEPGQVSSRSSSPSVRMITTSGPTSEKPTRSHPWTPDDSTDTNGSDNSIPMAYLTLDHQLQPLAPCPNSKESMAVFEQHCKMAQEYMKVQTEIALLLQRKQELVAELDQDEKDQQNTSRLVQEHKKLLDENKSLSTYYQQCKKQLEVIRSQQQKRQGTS
Chain of UniProt P51617 (whole entry, looked up): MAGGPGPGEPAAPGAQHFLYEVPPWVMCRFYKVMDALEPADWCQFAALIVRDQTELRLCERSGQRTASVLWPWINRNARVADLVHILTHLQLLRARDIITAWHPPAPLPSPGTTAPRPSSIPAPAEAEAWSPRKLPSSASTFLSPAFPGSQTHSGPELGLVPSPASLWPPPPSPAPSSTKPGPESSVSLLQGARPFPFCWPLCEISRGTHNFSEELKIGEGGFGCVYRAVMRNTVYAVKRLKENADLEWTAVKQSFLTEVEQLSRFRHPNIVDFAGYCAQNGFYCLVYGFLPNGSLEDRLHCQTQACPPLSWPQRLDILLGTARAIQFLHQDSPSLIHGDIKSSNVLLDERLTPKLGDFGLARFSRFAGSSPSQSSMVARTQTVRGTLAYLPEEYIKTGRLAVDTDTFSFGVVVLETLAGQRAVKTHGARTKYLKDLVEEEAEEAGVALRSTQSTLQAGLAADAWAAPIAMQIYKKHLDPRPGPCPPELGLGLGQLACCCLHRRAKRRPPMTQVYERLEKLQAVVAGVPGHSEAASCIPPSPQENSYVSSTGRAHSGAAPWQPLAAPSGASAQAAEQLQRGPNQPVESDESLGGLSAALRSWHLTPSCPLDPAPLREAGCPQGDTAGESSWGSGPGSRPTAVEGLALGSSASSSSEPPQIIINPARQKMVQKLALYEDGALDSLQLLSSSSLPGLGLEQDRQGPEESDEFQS
Chain of UniProt P25105 (whole entry, looked up): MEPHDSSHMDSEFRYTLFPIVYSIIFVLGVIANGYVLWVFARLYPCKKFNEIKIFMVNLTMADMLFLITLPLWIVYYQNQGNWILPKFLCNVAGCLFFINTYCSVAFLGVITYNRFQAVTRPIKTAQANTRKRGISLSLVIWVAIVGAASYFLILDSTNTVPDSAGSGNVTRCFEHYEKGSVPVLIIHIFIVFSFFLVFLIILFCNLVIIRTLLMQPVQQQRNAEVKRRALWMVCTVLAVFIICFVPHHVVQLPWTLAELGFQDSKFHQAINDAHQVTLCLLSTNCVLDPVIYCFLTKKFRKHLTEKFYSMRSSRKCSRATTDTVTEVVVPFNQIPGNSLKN
Chain of UniProt P47898 (whole entry, looked up): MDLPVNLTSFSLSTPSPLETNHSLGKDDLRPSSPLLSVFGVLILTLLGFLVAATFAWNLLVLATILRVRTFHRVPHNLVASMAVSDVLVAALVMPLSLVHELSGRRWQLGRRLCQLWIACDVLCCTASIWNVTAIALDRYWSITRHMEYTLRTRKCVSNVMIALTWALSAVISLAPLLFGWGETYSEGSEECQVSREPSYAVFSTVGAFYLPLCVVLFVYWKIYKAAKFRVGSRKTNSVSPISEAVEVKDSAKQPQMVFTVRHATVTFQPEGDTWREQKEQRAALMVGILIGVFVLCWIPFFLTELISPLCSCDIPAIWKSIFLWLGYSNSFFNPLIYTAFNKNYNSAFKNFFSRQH

For N=C(N)NCCCCC(=O)N[C@@H](CCC(N)=O)C(=O)N[C@@H](CC1CC1)C(=O)N[C@@H](CCCNC(=N)N)C(=O)c1nc2ccccc2s1, “activity vs control” read 31% (TMPRSS2; enzyme activity, inhibitor; 1 nM).
The inhibition of c1cncc([C@@H]2CCCN2)c1 is reported as 22.5% (5-hydroxytryptamine receptor 5A (HTR5A, Homo sapiens, UniProt P47898); ligand displacement; 50 µM).
For CC(C)CC(=O)OC[C@H]1O[C@@](C#N)(c2ccc3c(N)ncnn23)[C@H](O)[C@@H]1O, the inhibition was 4% (Platelet-activating factor receptor (PTAFR, Homo sapiens, UniProt P25105); cell-free assay; 20 µM).
Nc1ncc(-c2nc(N3CCOCC3)nc(N3CCOCC3)n2)c(C(F)F)n1 has a remaining binding of 88% (Epidermal growth factor receptor (EGFR, Homo sapiens, UniProt P00533, del752-759); cell-free assay, competition with immobilised ligand; 10 µM).
The inhibition of C#Cc1n[nH]c2c(-c3cn([C@@H](C)c4ccccn4)c(=O)[nH]c3=O)cc(F)cc12 is reported as 11.5% (Interleukin-1 receptor-associated kinase 1 (IRAK1, Homo sapiens, UniProt P51617); enzyme activity, inhibitor; 0.1 µM).
With [2H]c1c([2H])c([C@]2([2H])CCCN2C(=O)C(C)(C)Oc2ccc3cn[nH]c3c2)c([2H])c([2H])c1C([2H])([2H])[2H] the remaining binding was 67% (cGMP-dependent protein kinase 1 (PRKG1, Homo sapiens, UniProt Q13976); binding, competition with immobilised ligand; 1 µM).
With CC(c1ccc(Cl)c(Cl)c1)c1nn2c(-c3ccccc3F)nnc2s1 (stereo not shown) the IC50 was 1060 nM (Dihydroorotate dehydrogenase (quinone), mitochondrial (PFF0160c, Plasmodium falciparum, UniProt Q08210, E182D); enzyme activity, inhibitor, absorbance).
For N=C(N)NCCC[C@H](NC(=O)[C@H](CCCCN)NC(=O)[C@H](Cc1cscn1)NC(=O)CCc1ccccc1)C(=O)c1nc2ccccc2s1, “activity vs control” read 89% (TMPRSS2; enzyme activity, inhibitor; 1 nM).
O=C(c1ccc(Cl)cc1)N1CCCC(C(=O)N(Cc2nnc(-c3ccccc3Cl)o2)C2CC2)C1 (stereo not shown) gave an IC50 of 536 nM (Dihydroorotate dehydrogenase (quinone), mitochondrial (PFF0160c, Plasmodium falciparum, UniProt Q08210); enzyme activity, inhibitor, absorbance).
COc1ncccc1-c1cnn2ccc(N3CCN(C(=O)OC(C)C)CC3)nc12 gave a remaining binding of 100% (Mitogen-activated protein kinase kinase kinase 7 (MAP3K7, Homo sapiens, UniProt O43318); binding, competition with immobilised ligand; 1 µM).
Under “activity vs control”, CC(C)C[C@H](NC(=O)[C@H](CCc1ccccc1)NC(=O)CCc1ccccc1)C(=O)N[C@@H](CCCNC(=N)N)C(=O)c1nc2ccccc2s1 is recorded as 84% (TMPRSS2; enzyme activity, inhibitor; 1 nM).
Cc1nn(C)cc1-c1nc2c(N3CCN(Cc4ccc(Cl)cc4)CC3)c(Cl)cnc2[nH]1 has a remaining binding of 100% (Epidermal growth factor receptor (EGFR, Homo sapiens, UniProt P00533); binding, competition with immobilised ligand; 1 µM).
For CC1=CC(=O)c2c(O)cccc2C1=O, the remaining activity was 8.58% (Procathepsin L (CTSL, Homo sapiens, UniProt P07711); enzyme activity, inhibitor; 100 µM).

Some of these lines once more:
For CC(C)CC(=O)OC[C@H]1O[C@@](C#N)(c2ccc3c(N)ncnn23)[C@H](O)[C@@H]1O, the inhibition was 4% (Platelet-activating factor receptor (PTAFR, Homo sapiens, UniProt P25105); cell-free assay; 20 µM).
